Measured values pooled from the literature.
Every numbered part comes from another study and shows a few of its results, in no order.
Chain of UniProt P10721 (whole entry, unmodified, looked up): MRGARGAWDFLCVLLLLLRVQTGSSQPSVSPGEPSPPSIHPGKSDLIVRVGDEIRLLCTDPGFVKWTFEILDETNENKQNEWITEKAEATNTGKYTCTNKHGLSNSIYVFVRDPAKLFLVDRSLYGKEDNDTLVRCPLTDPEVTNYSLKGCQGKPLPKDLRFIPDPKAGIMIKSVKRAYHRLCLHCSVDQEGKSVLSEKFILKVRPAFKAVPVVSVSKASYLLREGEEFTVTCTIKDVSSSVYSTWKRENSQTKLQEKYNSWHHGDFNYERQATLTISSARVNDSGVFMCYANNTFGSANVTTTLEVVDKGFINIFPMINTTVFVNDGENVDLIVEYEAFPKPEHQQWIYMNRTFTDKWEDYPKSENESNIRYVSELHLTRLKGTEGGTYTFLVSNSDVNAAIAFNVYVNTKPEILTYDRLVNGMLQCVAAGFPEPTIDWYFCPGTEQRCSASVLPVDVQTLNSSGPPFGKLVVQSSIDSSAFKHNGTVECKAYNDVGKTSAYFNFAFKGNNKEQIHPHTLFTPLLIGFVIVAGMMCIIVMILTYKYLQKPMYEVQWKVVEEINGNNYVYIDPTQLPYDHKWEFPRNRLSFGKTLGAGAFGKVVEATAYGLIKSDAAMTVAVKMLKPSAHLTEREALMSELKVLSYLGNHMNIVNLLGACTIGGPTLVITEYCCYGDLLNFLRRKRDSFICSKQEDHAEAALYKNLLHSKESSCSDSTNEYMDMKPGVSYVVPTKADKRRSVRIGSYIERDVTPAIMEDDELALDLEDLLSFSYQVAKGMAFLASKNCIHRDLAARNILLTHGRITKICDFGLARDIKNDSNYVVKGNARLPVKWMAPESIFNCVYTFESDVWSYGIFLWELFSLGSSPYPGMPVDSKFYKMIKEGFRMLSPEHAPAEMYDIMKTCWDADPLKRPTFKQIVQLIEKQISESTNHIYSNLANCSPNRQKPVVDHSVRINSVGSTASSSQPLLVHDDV
Chain of UniProt Q99986 (whole entry, looked up): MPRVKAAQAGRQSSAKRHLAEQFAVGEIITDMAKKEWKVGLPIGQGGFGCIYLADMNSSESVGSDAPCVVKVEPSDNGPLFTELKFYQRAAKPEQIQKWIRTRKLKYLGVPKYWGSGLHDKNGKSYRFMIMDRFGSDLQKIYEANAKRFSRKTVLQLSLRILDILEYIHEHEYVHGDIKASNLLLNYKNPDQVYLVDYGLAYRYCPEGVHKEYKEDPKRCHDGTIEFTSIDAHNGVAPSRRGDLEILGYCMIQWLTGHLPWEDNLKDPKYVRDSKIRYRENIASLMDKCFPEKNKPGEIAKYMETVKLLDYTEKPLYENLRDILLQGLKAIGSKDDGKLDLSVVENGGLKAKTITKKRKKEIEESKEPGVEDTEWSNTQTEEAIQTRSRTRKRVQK
Chain of UniProt P80192 (whole entry, looked up): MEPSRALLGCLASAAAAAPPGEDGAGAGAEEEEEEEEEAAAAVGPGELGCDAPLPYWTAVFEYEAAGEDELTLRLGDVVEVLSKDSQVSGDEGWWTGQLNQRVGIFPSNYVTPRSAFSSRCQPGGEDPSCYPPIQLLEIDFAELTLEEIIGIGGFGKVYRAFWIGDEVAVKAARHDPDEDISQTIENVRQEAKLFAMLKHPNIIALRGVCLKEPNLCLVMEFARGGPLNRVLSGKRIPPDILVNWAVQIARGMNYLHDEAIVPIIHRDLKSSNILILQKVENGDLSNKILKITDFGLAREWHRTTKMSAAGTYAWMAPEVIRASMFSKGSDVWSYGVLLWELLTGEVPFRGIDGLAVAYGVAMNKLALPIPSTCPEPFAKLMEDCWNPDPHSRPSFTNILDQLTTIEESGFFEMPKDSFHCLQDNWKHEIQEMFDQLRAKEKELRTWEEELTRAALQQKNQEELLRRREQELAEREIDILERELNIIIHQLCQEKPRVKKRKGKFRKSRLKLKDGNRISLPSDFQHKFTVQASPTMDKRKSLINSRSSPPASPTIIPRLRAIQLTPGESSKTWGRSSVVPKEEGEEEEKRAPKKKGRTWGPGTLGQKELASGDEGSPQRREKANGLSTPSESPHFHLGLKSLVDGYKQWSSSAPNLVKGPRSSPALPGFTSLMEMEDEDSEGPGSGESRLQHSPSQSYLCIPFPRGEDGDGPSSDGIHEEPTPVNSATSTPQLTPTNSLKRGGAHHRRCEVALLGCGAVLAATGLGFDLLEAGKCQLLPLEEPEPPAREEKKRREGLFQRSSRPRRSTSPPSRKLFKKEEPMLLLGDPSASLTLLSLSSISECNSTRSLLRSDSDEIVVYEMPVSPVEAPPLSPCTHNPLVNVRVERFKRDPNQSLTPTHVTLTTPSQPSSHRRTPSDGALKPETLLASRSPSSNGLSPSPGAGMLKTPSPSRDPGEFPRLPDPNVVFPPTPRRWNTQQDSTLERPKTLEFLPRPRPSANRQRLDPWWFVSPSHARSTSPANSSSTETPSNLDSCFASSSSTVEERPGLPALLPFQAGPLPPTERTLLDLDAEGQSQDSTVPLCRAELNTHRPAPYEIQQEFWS
Chain of UniProt Q9H3Y6 (whole entry, looked up): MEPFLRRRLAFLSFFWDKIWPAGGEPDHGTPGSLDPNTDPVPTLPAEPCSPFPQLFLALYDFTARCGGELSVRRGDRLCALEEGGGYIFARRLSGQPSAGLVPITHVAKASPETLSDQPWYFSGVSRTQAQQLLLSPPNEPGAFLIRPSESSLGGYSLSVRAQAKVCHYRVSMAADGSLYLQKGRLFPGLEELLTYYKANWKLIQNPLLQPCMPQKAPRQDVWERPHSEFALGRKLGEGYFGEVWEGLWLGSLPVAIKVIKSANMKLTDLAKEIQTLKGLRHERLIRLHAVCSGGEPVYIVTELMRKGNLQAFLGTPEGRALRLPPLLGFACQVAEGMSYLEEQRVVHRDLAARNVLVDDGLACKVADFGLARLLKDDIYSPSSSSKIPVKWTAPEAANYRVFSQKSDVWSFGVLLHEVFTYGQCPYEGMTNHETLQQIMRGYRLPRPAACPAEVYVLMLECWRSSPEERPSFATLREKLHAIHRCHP
Chain of UniProt Q9HAZ1 (whole entry, looked up): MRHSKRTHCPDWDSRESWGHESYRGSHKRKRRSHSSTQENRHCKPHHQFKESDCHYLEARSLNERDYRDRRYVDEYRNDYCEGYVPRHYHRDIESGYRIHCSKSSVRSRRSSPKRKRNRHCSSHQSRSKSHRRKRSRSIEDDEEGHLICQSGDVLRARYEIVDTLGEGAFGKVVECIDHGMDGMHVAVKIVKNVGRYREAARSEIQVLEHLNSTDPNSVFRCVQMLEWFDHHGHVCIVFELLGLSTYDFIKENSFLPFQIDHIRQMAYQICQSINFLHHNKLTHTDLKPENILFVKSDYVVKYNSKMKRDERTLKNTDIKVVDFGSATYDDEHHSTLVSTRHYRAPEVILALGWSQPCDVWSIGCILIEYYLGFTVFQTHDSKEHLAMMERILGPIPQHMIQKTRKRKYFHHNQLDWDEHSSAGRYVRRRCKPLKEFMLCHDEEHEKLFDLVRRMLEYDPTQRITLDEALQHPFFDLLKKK
Chain of UniProt Q08345 (whole entry, looked up): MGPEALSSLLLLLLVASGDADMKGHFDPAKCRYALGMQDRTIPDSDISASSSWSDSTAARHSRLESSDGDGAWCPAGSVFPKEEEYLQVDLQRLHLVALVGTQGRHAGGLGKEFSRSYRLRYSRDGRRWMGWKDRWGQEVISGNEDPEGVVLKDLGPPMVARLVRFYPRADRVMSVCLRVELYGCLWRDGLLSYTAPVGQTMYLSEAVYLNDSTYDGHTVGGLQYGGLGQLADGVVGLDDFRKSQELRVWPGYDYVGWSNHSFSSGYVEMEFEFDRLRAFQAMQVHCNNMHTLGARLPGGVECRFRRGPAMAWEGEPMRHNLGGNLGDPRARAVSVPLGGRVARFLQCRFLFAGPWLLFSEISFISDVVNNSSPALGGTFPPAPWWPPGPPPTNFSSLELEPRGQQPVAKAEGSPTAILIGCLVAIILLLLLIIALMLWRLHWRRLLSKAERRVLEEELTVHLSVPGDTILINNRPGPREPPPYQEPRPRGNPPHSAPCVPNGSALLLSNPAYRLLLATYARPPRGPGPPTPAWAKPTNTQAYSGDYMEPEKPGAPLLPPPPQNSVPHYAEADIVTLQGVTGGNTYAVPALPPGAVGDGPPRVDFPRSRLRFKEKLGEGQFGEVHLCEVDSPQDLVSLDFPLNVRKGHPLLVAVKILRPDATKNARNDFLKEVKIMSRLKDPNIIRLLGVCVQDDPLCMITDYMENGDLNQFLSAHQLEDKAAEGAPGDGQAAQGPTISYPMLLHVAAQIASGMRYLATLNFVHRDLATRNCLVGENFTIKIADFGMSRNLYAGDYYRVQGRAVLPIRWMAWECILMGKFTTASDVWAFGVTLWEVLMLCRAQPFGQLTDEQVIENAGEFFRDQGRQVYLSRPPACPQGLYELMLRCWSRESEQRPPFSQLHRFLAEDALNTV
Chain of UniProt Q9UQM7 (whole entry, looked up): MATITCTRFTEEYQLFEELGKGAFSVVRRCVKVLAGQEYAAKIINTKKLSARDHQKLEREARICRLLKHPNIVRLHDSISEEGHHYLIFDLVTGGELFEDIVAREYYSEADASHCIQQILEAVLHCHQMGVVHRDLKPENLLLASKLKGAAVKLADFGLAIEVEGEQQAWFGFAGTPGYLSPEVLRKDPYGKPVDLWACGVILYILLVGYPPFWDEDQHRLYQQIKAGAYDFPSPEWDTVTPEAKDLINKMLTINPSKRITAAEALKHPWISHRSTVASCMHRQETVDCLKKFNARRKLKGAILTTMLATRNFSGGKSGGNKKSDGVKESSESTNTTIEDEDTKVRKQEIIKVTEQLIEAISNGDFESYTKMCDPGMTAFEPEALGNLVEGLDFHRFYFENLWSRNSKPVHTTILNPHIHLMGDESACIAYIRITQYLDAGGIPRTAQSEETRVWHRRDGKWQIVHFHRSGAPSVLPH

Sample 1 — observed: cell-free assay; technique: competition with immobilised ligand; tested at: 1 µM; measurement: remaining binding
Structure (SMILES): COc1cc(-c2cn(C3CCc4c(F)cccc4N(CC(F)(F)F)C3=O)nn2)ccc1-n1cnc(C)c1 (stereo not drawn)
DYRK1A (Homo sapiens, UniProt Q13627): 84%
CLK4 (Homo sapiens, UniProt Q9HAZ1): 100%
KIT (Homo sapiens, UniProt P10721, D816V): 100%
KIT (Homo sapiens, UniProt P10721, T670I/V559D): 94%
CAMK2A (Homo sapiens, UniProt Q9UQM7): 100%
DDR1 (Homo sapiens, UniProt Q08345): 100%
SRMS (Homo sapiens, UniProt Q9H3Y6): 100%
KIT (Homo sapiens, UniProt P10721, A829P): 92%
YES1 (Homo sapiens, UniProt P07947): 100%
CDKL1 (Homo sapiens, UniProt Q00532): 100%

Sample 2 — cell line: A-375; tested at: 100 µM; time: 18 h; measurement: viability
CCCCCCCCCCCCCCCC[N+](C)(C)CCN(Cc1ccc(OC)cc1)c1ncccn1: 9.89%
CC(=O)N[C@H]1[C@H]([C@H](O)[C@H](O)CO)OC(C(=O)O)=C[C@@H]1N=C(N)N: 102%
CN1CCN(c2c(F)cc3c(=O)c(C(=O)O)cn(CCF)c3c2F)CC1: 95.7%
CCC(C)(Oc1ccc(C2(c3ccc(OC(C)(CC)C(=O)O)cc3)CCCCC2)cc1)C(=O)O (stereo not drawn): 92%
CCCNC(C)C(=O)Nc1ccccc1C (stereo not drawn): 92.8%
CC(=O)Oc1cc2c(s1)CCN(C(C(=O)C1CC1)c1ccccc1F)C2 (stereo not drawn): 71.8%
CCOCC(O)COc1ccc(NC(=O)CC[S+](C)C)cc1 (stereo not drawn): 104%
CCCCCCCCCCC[C@@H](C[C@@H]1OC(=O)[C@H]1CCCCCC)OC(=O)[C@H](CC(C)C)NC=O: 22.8%
CCC(C)n1ncn(-c2ccc(N3CCN(c4ccc(OC[C@H]5CO[C@](Cn6cncn6)(c6ccc(Cl)cc6Cl)O5)cc4)CC3)cc2)c1=O (mixture of isomers): 87.8%
OC(CCN1CCCCC1)(c1ccccc1)C1C[C@@H]2C=C[C@H]1C2 (stereo partly drawn): 36.4%
Cn1c(=O)cc(N2CCC[C@@H](N)C2)n(Cc2ccccc2C#N)c1=O: 94.1%

Sample 3 — host: human; sample: microsomes or S9; tested at: 2 µM; time: 0.5 h; measurement: remaining compound
Cc1ccc(-n2ncc3c(C(C)C)nn(CC(=O)NC(C)(C)C)c(=O)c32)cc1C: 88.6%
c1cc2c(cc1C1CCCCC1)c1c3n2CCN=C3NCC1: 99.5%
CCOc1cc(=O)n2c(c1C(=O)N1CCOCC1)CCCCC2: 92.8%
CC(C)NC(=O)Cn1cnc2c(sc3cccc(Cl)c32)c1=O: 87.8%
O=C(NC1CCN(Cc2ccc3c(c2)OCO3)CC1)c1cc2ccc3ccccc3c2o1: 30.8%
O=C1NCC(Cn2c3ccccc3c3ccccc32)O1 (stereo not drawn): 60.1%
c1cc2c(cn1)cnn2Cc1nnc2ccc(-n3ncc4cnccc43)nn12: 43.7%
COc1ccc2c(c1)OC(=O)C(C(O)c1ccc3c(c1)OCO3)C2c1ccccc1 (stereo not drawn): > 100%
Clc1ccccc1/C=C/c1nnc(-c2ccccc2Cl)o1: 66.5%
CC(C)C(=O)N1CCN(c2cnc(N)c(-c3nc4ccccc4o3)c2)CC1: 67.1%
OC(CN1CCCC1CC1CCCCC1)Cn1cccn1 (stereo not drawn): 55.2%

Sample 4 — Compound: Cn1cnc2cc3c(Nc4cccc(Br)c4)ncnc3cc21; observed: enzyme activity; mode: inhibitor; tested at: 0.5 µM; baseline: control; measurement: remaining activity
NTRK2 (Homo sapiens, UniProt Q16620): 98.9%
MAP3K9 (Homo sapiens, UniProt P80192): 79.8%
RIPK2 (Homo sapiens, UniProt O43353): 35.6%
PHKG2 (Homo sapiens, UniProt P15735): 103%
PDGFRB (Homo sapiens, UniProt P09619): 99.7%
TAOK1 (Homo sapiens, UniProt Q7L7X3): 92.4%
FGFR2 (Homo sapiens, UniProt P21802): 98%
ULK1 (Homo sapiens, UniProt O75385): 113%
PRKD3 (Homo sapiens, UniProt O94806): 93.1%
MAP4K5 (Homo sapiens, UniProt Q9Y4K4): 56.1%
DSTYK (Homo sapiens, UniProt Q6XUX3): 97.5%
RAF1 (Homo sapiens, UniProt P04049): 98.6%
DYRK2 (Homo sapiens, UniProt Q92630): 95.5%
INSRR (Homo sapiens, UniProt P14616): 92.1%
HCK (Homo sapiens, UniProt P08631): 70.4%
VRK1 (Homo sapiens, UniProt Q99986): 100%
ACVR1 (Homo sapiens, UniProt Q04771): 109%
PLK1 (Homo sapiens, UniProt P53350): 97.6%
SGK3 (Homo sapiens, UniProt Q96BR1): 107%

Excerpt of the above (sample 1):
KIT (Homo sapiens, UniProt P10721, A829P): 92%
YES1 (Homo sapiens, UniProt P07947): 100%
CDKL1 (Homo sapiens, UniProt Q00532): 100%
